Assay results pooled from the literature.
A part holds a random share of what one study measured. Substitutions count along the parent as printed.

Sample 1 — method: protein binding microarray; molecule type: double-stranded DNA, one strand shown; matrix: in vitro; concentration: not given; relative to: not given; reading: higher = stronger binding
Target: Histone acetyltransferase KAT6A, both winged helices, GST fusion (KAT6A, Homo sapiens, UniProt Q92794, residues 1-181)
Setting: 8-mer, flanks averaged, mean of 2 arrays, mostly near background
Construct (chain): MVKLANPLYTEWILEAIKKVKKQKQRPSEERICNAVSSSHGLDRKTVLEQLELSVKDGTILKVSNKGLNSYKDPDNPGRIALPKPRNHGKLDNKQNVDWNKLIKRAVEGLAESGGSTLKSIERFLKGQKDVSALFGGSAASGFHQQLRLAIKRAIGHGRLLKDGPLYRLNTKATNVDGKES
Sequence | E-score
ATAGAGTA | -0.0635
ACCCCAGT | -0.291
GCCGGCGA | 0.289
CGCTGTCA | 0.182
ATTAAGGG | -0.169
AACACGTA | -0.0104
ATGGTATC | -0.186
GACAATGC | -0.0318

Sample 2 — Variant: R88W; method: DHFR PCA, deep sequencing; matrix: yeast; relative to: wild-type fitted maximum; reading: higher = stronger binding
Target: ABI1, truncated, D143A, DHFR fusion (Arabidopsis thaliana)
Setting: methotrexate growth selection, single substitutions
Starting sequence: PYL1, truncated, DHFR fusion (Arabidopsis thaliana); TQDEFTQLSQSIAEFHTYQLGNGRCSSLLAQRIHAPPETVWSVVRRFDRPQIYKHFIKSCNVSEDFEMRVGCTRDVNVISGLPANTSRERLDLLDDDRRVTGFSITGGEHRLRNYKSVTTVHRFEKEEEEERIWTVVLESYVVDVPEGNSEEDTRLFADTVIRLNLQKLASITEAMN
together with | relative binding score
(+)-ABA 2500 µM | 92.8%
(+)-ABA 0.0091 µM | -0.141%
(+)-ABA 58 µM | 60.4%
(+)-ABA 0 µM | 2.48%
(+)-ABA 17 µM | 52.1%
(+)-ABA 710 µM | 92.4%

Sample 3 — method: Spec-seq; molecule type: double-stranded DNA, one strand shown; matrix: in vitro; concentration: not given; setting: whole probe, mean of replicates; relative to: not given; reading: lower = stronger binding; all sequences stand within: GAGTCGTCTCGTCAGCACA … CCGTAGAGCACTCAGGTC
Target: POU, POU domain (Salpingoeca helianthica)
Residues (chain): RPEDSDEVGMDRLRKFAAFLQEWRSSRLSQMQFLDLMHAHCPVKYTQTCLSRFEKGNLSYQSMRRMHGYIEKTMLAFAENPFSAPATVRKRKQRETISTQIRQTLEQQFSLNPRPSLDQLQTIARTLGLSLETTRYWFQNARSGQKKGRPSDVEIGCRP
Sequence | relative binding energy [ln ratio]
GCGTAAT | 0.682
TCAACAT | 1.16
TTCCTAT | 1.11
CTTTAAT | 0.242
TGCCAGC | 1.38
AAGTAAT | 0.738
TGCACCT | 1.2
TGCACTG | 1.42

Single results of other studies
SMILES | target | observed | mode | concentration | relative to | quantity | result
COc1cc2ncnc(Nc3ccc(O)c(Br)c3)c2cc1OC | Protein kinase C gamma type (PRKCG, Homo sapiens, UniProt P05129) | enzyme activity | inhibitor | 0.5 µM | control | remaining activity | 94.1%

A few entries again (sample 2):
together with | relative binding score
(+)-ABA 0.0091 µM | -0.141%
(+)-ABA 58 µM | 60.4%
(+)-ABA 0 µM | 2.48%
